Assay results gathered from unrelated publications.
Numbered parts are unrelated; each lists some results of a single study.

Block 1
Target: Histone acetyltransferase KAT6A, winged helix 2, GST fusion (KAT6A, Homo sapiens, UniProt Q92794, residues 85-181)
Method: protein binding microarray
Molecule type: double-stranded DNA, one strand shown
Sample: in vitro
Tested at: not given
Notes: 8-mer, flanks averaged, mean of 2 arrays, mostly near background
Reference: not given
Direction: higher = stronger binding
Measurement: E-score
Construct (chain): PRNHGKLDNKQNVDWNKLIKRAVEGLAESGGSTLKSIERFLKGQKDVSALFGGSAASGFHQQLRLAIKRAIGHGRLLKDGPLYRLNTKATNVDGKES
ACTCACCG: 0.0275
GGTCAAGA: -0.0913
ACGTAGCC: -0.261
ATAGACTC: -0.216
AAAGTCGA: -0.063
CACCAAAC: 0.17
TATCGTAA: 0.0172
AATTCTCG: -0.00722

Block 2
Target: Replicase polyprotein 1ab, nsp13 helicase (rep, Severe acute respiratory syndrome coronavirus 2, UniProt P0DTD1)
Mode: inhibitor
Tested at: 20 µM
Measurement: inhibition
CC(C)NC(=N)NC(=N)Nc1ccc(Cl)cc1: 2.15%
Oc1cc(CNC(=S)/C=C/c2cc(O)c(O)c(Br)c2)cc(O)c1O: 71.4%
CC(CN(C)C)C(C)(O)Cc1ccc(Cl)cc1 (stereo not shown): 0.23%
C=CC(=O)N1CCN(C(=O)CNc2cc(I)c(Cl)cc2O)CC1: 16%
C=CCN1CC[C@]23CCCC[C@H]2[C@H]1Cc1ccc(O)cc13: 0.75%
CC(C)(Sc1cc(C(C)(C)C)c(O)c(C(C)(C)C)c1)Sc1cc(C(C)(C)C)c(O)c(C(C)(C)C)c1: 4.06%
Cc1c(F)cccc1NC(=O)Nc1ccc(Cl)c(S(=O)(=O)[C@H]2CCCNC2)c1O: -1.68%
O=C(Nc1cccnn1)N1CCC(=Cc2cccc(Oc3ccc(C(F)(F)F)cn3)c2)CC1: 10.6%
O=C(N[C@H]1CN2CCC1CC2)c1cc2cccc(Cl)c2s1: 7.14%
O=C(c1ccc(C(=O)N2CCC(N3CCCC3)CC2)c(Nc2ccccc2)c1)N1CCC(N2CCCC2)CC1: 9.27%
CC(C)N(C[C@H]1O[C@@H](n2cnc3c(N)ncnc32)[C@H](O)[C@@H]1O)[C@H]1C[C@@H](CCc2nc3cc(C(C)(C)C)ccc3[nH]2)C1: 2.58%
S=c1[nH]cnc2nc[nH]c12: 5.28%
Nc1ccc(S(=O)(=O)c2ccc(N)cc2)cc1: -1.96%
OC[C@@H](O)[C@@H](O)CO: -10.3%
Nc1nc2c(c(=O)[nH]1)C[C@@H](CCc1ccc(C(=O)N[C@@H](CCC(=O)O)C(=O)O)cc1)CN2: 3.7%
CCOc1cc(C(=O)N2CCC(N3CCN(C)CC3)CC2)ccc1Nc1ncc2c(n1)N(C1CCCC1)c1ccccc1C(=O)N2C: 5.66%
CCOC(=O)Nc1nc2ccccc2[nH]1: 6.78%
CN1CCN(CC/C=C2/c3ccccc3Sc3ccc(S(=O)(=O)N(C)C)cc32)CC1: -4.35%
O=C(O)c1cccnc1C(=O)O: 2.59%
O=C(O)[C@H](CC(=O)N1C[C@H]2CCCC[C@H]2C1)Cc1ccccc1: 2.44%

Block 3
Target: Interferon regulatory factor 7, full length, phosphomimetic (IRF7, Homo sapiens, UniProt Q92985, residues 1-503, S101K/S471D/S472D/S475D/S476D/S477D/S483D/S484D/S487D)
Sequence of UniProt Q92985 (whole entry, unmodified, looked up): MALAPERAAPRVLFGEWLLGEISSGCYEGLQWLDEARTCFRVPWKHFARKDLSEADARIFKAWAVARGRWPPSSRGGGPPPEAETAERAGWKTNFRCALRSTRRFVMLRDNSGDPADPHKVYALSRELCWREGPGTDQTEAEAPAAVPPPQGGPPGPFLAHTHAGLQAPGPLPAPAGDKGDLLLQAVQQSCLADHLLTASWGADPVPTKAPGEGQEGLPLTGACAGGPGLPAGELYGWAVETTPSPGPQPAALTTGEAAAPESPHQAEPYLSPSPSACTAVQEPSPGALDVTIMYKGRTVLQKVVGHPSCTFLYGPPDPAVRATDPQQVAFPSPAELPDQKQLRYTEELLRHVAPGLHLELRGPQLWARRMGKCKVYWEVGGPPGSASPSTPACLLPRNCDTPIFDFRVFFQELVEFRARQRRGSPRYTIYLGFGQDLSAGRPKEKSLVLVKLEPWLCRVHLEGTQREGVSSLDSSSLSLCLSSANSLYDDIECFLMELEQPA
Method: protein-binding microarray
Molecule type: double-stranded DNA, one strand shown
Sample: in vitro
Tested at: 250 nM
Notes: 60-bp whole probe
Added: salmon DNA 0.4 mg/ml
Reference: random background probes
Direction: higher = stronger binding
Measurement: log fluorescence
Shared flanks, not repeated: GCCTAGCAC … GTCTTGATTCGCTTGACGCTGCTG
GACGGTTTCCTTTCCCGGACGTGCTAG: 4.99 z-score
GATGGTCTCCTTATCCTGACGTGCTAG: 0.175 z-score
TTAGATTTCAGTTTCGATTCGTGCTAG: 12.8 z-score
GACGGTCTCGGTCTCGGAACGTGCTAG: 1.22 z-score
GACGGGTTCCTACTGCTGACGTGCTAG: 0.157 z-score
GACGAACTAGGGACTGGAGACGTGCTA: -0.372 z-score
TGAGGACTGCTTATCCTTTAGTGCTAG: -0.355 z-score
TCATGTCTGGGCATTTTTACTGTGCTA: -0.805 z-score

Block 4
Organism: SARS-CoV-2
Read-out: cytopathic effect
Cell line: Vero E6
Tested at: 10 µM
Measurement: inhibition
CCCCCCCCCCCCCCCC[n+]1ccn(Cc2ccccc2)c1C: -34.1%
O=C(NCCCNc1nc(Nc2cccc(NC(=O)N3CCCC3)c2)ncc1I)c1cccs1: -5.2%
C=C1c2cccc(O)c2C(=O)C2=C(O)[C@]3(O)C(=O)C(C(N)=O)=C(O)[C@@H](N(C)C)[C@@H]3[C@@H](O)[C@H]12: -2.4%
C[C@H]1COC2=C1C(=O)C(=O)c1c2ccc2c1CCCC2(C)C: -11.7%

A few entries again (block 4):
O=C(NCCCNc1nc(Nc2cccc(NC(=O)N3CCCC3)c2)ncc1I)c1cccs1: -5.2%
C=C1c2cccc(O)c2C(=O)C2=C(O)[C@]3(O)C(=O)C(C(N)=O)=C(O)[C@@H](N(C)C)[C@@H]3[C@@H](O)[C@H]12: -2.4%
CCCCCCCCCCCCCCCC[n+]1ccn(Cc2ccccc2)c1C: -34.1%
C[C@H]1COC2=C1C(=O)C(=O)c1c2ccc2c1CCCC2(C)C: -11.7%
